# Published values of several laboratories.
# Each line is one published result; not all experiments were run side by side. Values joined by “and” are separate records of one study, mostly repeats; a detail may differ. ± marks the error that the study gave.
Structure (SMILES),target or system,test,system,conditions,how to read,measurement,result
Cc1ncsc1-c1ccc(C(C)NC(=O)C2CC(O)CN2C(=O)C(NC(=O)CCCCCCCCCCN2CCCC(Nc3ncc(Cl)c(Nc4ccccc4S(=O)(=O)C(C)C)n3)C2)C(C)(C)C)cc1 (stereo not shown),22Rv1,"RNA-seq, measured: THAP7 mRNA",,concentration not given,reference: DMSO,log2 fold change,-1.19
CCN(C(=O)c1cc(F)ccc1Oc1nncnc1N1CCC2(C1)CN([C@H](CCCN(C)CCOC)C(C)C)C2)C(C)C,SAOS-2,cell growth or viability,,72 h,,GI50,> 10 µM
CN1CCCNC(=O)c2cccc(c2)C(=O)NCCCN(C)CCCNc2cccc3c2C(=O)c2cccc(c2C3=O)NCCC1,SAS,"RNA-Seq, measured: MAPK9 mRNA",,"1 µM, 6 h",reference: untreated cells,log2 fold change,-0.57
Cn1ncc2cc(-c3cncc(Cl)c3N3CCC4(CCNC4=O)CC3)ccc21,LS174T,"gene expression, microarray, measured: MYL9 mRNA",,"concentration not given, 4 h",reference: untreated cells,log2 fold change,2.81
O=C(N/N=C/c1ccc(C[n+]2ccccc2)cc1)C(=O)N/N=C/c1ccc(C[n+]2ccccc2)cc1,myc22 MYC G4-DNA parallel,FRET melting,,"1 µM, K1 buffer, DNA 0.2 µM, with: ds26 10 µM",,ΔTm,3.4 ± 0.4 °C
Nc1ncc(-c2cc(-c3cnn(CC(F)(F)F)c3)ncc2F)nc1C(=O)NC1CNCC(F)C1 (stereo not shown),AKT3,KINOMEscan,,1 µM,reference: DMSO control,remaining binding,93%
C=CC(=O)Nc1cccc(Cn2ncc3cnc(Nc4cnn(CCOC)c4)nc32)c1,CSNK2A2 human,"binding, KINOMEscan",,100 nM,lower = stronger binding,percent of control,23%
COC1CN([C@H]2CC[C@H]([C@@]3(C)Oc4c(Cl)cc(C(=O)NCc5c(SC)cc(C)[nH]c5=O)c(C)c4O3)CC2)C1,,"RNA-seq, measured: ARFGEF3","human, whole blood","dose not given, 24 h",reference: pretreatment baseline,log2 fold change,5.86
CC(C)c1ccc(N(C)c2ccc3c(c2)OCC[C@H]3CNc2cnccc2C(=O)O)cc1,HCC827,"cell viability, CellTiter-Glo",,7 days,,IC50,≥ 10 µM
COc1ccccc1-c1ccncc1C(=O)Nc1nnc(OCc2ccc(Cl)cc2)s1,DLD-1 BRCA2-/-,,,"2 µM, mean of replicates",,colony count,16.5 and 25 and 15
CCN(CC)CC(=O)Nc1cccc(-n2cc(-c3ccc4ccc(-c5cn(-c6cccc(NC(=O)CN(CC)CC)c6)nn5)cc4c3)nn2)c1,RCC4,"PCR angiogenesis array, measured: EFNA1",,"5 x IC50, 6 h, normoxia",reference: untreated,fold regulation,-1.51
CO[C@@H]1[C@@H](OC(N)=O)[C@@H](O)[C@H](Oc2ccc3c(O)c(NC(=O)c4ccc(O)c(CC=C(C)C)c4)c(=O)oc3c2C)OC1(C)C,HCT-116 BRCA2 wild-type,,,"50 µM, replicate B",reference: untreated,colony survival,88.6%
CNS(=O)(=O)Nc1nccc(Cc2c(C)c3ccc(Oc4ncccc4F)cc3oc2=O)c1F,LK-2,cell viability,,7 days,,IC50,0.00278 µM

# A few entries again:
Structure (SMILES),target or system,test,system,conditions,how to read,measurement,result
Cc1ncsc1-c1ccc(C(C)NC(=O)C2CC(O)CN2C(=O)C(NC(=O)CCCCCCCCCCN2CCCC(Nc3ncc(Cl)c(Nc4ccccc4S(=O)(=O)C(C)C)n3)C2)C(C)(C)C)cc1 (stereo not shown),22Rv1,"RNA-seq, measured: THAP7 mRNA",,concentration not given,reference: DMSO,log2 fold change,-1.19
